# Published values gathered from unrelated publications.
# Protocols differ between the studies behind these lines. “And” joins repeats or separate records; there may be more than shown. Numbers after ± are the reported error.
# EGLN2: Prolyl hydroxylase EGLN2 (EGLN2, Homo sapiens, UniProt Q96KS0)
# Sequence of UniProt Q96KS0 (whole entry, looked up): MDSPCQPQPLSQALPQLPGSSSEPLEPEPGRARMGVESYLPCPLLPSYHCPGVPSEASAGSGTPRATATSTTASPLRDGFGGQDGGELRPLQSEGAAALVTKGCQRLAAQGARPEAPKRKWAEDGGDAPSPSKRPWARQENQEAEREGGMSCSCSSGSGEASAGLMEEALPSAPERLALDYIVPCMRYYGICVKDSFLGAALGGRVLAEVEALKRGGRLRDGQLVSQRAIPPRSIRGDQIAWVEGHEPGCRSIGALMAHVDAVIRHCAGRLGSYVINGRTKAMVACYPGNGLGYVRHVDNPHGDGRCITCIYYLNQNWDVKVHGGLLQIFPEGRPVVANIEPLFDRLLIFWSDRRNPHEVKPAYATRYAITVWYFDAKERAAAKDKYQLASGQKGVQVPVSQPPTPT
# SEC14: SEC14 (Saccharomyces cerevisiae, UniProt P24280)
# Sequence of UniProt P11309 (whole entry, looked up): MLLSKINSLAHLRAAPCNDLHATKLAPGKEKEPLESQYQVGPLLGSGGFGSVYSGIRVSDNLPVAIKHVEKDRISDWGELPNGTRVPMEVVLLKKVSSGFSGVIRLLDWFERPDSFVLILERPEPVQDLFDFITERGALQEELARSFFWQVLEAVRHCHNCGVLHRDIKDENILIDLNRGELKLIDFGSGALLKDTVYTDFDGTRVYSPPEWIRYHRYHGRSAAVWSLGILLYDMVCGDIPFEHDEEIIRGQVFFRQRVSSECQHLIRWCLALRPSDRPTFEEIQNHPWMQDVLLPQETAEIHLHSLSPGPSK
# Sequence of UniProt P24280 (whole entry, looked up): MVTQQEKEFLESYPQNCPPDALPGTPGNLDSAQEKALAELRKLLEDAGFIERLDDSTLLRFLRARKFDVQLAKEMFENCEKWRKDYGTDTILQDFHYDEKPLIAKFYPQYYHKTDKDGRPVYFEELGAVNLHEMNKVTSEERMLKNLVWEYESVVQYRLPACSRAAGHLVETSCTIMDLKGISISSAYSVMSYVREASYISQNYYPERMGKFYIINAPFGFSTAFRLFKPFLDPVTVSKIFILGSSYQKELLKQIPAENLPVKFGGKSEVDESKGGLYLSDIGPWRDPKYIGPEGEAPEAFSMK
# Sequence of UniProt P54764 (whole entry, looked up): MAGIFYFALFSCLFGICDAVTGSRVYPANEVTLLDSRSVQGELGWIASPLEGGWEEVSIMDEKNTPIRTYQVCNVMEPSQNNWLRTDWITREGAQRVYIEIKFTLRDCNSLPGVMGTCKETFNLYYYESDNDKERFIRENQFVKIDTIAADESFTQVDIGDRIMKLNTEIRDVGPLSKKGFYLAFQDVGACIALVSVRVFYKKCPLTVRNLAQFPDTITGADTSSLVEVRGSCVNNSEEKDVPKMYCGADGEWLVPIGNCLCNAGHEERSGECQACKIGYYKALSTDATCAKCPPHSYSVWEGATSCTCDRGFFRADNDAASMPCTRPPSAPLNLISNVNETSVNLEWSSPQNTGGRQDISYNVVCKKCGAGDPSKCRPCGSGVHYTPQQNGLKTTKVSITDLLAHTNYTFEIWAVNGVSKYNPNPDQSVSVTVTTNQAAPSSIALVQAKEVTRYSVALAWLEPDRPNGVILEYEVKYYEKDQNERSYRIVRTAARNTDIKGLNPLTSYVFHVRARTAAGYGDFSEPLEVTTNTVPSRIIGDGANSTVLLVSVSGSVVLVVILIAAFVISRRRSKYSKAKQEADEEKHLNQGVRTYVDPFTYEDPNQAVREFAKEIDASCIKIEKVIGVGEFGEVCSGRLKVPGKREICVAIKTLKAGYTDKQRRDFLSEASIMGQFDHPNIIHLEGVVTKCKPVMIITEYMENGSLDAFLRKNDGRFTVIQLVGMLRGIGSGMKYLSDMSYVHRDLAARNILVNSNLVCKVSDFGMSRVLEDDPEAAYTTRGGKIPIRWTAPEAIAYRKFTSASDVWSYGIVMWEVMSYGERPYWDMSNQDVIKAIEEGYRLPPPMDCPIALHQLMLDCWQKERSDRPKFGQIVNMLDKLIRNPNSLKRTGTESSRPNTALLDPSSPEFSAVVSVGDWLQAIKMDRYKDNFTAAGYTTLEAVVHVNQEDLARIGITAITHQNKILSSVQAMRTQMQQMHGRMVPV
# Sequence of UniProt P47811 (whole entry, looked up): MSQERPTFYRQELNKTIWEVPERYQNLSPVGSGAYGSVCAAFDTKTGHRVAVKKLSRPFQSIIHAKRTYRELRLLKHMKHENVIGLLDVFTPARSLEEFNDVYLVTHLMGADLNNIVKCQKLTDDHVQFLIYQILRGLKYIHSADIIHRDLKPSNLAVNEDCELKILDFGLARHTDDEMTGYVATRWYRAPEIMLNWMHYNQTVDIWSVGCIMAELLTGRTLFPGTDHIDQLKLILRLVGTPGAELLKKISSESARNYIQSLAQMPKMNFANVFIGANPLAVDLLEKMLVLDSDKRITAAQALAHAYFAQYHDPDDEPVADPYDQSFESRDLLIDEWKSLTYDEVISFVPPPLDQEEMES
# Sequence of UniProt P39051 (whole entry, looked up): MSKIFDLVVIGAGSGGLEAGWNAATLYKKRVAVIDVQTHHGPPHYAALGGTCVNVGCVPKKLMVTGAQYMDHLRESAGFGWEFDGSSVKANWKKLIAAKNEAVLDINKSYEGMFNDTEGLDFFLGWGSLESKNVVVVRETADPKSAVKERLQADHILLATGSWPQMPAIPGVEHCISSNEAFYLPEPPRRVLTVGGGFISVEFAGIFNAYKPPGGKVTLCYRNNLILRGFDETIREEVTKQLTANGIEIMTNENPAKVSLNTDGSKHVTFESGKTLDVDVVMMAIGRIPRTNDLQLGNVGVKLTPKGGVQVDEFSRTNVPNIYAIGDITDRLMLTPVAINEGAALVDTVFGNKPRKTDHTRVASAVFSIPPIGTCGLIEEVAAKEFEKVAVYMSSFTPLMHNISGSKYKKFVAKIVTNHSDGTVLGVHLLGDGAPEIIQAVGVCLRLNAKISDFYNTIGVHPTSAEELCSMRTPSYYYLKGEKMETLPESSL
# Sequence of UniProt Q9WV54 (whole entry, looked up): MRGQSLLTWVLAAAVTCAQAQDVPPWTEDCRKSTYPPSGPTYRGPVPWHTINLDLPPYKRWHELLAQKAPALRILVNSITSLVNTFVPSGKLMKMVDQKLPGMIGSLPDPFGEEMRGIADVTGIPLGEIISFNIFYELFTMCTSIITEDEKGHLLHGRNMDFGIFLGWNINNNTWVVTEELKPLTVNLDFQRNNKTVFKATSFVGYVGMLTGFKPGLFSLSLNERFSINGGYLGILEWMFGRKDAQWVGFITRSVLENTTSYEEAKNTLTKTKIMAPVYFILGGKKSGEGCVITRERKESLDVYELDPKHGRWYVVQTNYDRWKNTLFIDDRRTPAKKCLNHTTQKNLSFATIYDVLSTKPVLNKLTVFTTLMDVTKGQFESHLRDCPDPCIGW
# Sequence of UniProt Q6SZW1 (whole entry, looked up): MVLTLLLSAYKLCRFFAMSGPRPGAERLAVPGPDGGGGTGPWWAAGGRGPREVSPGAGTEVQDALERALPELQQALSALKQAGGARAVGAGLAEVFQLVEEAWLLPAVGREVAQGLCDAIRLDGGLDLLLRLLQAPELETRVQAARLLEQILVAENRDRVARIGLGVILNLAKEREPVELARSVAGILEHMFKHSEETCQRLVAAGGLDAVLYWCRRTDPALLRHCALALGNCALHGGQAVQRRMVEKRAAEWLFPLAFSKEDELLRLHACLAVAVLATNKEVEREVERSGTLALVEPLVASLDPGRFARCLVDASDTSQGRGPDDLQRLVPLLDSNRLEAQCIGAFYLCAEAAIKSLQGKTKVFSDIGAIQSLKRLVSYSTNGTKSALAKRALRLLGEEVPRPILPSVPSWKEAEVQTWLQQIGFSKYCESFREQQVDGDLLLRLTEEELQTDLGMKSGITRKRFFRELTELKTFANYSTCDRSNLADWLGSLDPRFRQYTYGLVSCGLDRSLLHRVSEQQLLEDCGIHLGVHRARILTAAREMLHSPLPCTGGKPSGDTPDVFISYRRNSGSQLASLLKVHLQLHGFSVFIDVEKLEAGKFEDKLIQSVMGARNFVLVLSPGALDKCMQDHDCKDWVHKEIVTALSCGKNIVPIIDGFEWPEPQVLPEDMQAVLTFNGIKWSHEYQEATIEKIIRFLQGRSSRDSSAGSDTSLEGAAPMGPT
# Sequence of UniProt Q04771 (whole entry, looked up): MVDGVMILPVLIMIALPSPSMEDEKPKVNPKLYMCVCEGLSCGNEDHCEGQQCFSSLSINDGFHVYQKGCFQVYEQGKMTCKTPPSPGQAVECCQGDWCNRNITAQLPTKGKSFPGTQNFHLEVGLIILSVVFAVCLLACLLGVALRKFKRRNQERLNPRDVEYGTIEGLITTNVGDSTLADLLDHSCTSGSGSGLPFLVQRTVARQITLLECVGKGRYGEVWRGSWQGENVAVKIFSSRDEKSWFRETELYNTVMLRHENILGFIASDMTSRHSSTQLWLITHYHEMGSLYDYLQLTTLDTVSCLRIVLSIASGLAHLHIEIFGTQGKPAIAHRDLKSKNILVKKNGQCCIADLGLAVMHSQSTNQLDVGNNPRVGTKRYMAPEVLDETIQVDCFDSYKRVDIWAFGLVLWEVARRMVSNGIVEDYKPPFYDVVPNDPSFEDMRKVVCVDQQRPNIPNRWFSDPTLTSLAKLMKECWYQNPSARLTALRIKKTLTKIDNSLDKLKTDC
# Sequence of UniProt P52699 (whole entry, looked up): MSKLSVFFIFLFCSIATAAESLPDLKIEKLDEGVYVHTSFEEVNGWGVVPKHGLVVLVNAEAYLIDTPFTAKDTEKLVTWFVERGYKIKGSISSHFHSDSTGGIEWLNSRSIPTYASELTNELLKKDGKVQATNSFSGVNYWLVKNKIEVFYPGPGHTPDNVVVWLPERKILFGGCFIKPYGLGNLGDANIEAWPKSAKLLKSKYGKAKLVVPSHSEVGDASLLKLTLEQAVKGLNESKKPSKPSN
SMILES,target,test,test system,conditions,IC50
CSc1ncc(-c2cc(-c3ccc(Br)cc3)[nH]c(=O)c2C#N)n1Cc1ccccc1,"PIM1 (Homo sapiens, UniProt P11309)","enzyme activity, inhibitor",,,115 nM and < 150 nM
CN(C)c1ccc2c3c(cccc13)C(=O)N(CCS)C2=O,"Metallo-beta-lactamase type 2 (Serratia marcescens, UniProt P52699)","enzyme activity, inhibitor",,"pH 7.0, added: chromacef 25 µM",230 ± 20 nM
CNC(=O)C1CCN(c2cc(C)c(F)cc2NC(=O)c2ccc(-c3c(C)ccc4[nH]ncc34)c(C)c2)CC1,"EPHA4 (Homo sapiens, UniProt P54764)","target engagement in cells, BRET",,,40 nM
CCCCn1nc(-c2cc(Br)ccc2F)nc2c(=O)n(C)c(=O)nc1-2,"TPR (Trypanosoma brucei brucei, UniProt P39051)","inhibitor, DTNB-coupled colourimetric",,added: substrate at Km,> 100000 nM
CCN(c1nc(NCC(=O)O)nc(N2CCN(c3ccccc3C#N)CC2)n1)C1CCCCC1,"Slit homolog 2 protein, with SLIT2 (SLIT2, Homo sapiens, UniProt O94813)","inhibitor, TR-FRET",,,225000 nM
N#Cc1c(Nc2c(Cl)ccc3ncccc23)s[nH]c1=O,"SARM1 (Homo sapiens, UniProt Q6SZW1)","enzyme activity, inhibitor",,,1200 nM
CN1CCN(C(=O)c2ccc(-c3ccc4c(c3)/C(=C/c3ccc(N5CCNCC5)cc3)C(=O)N4)cc2)CC1,"FGFR4 (Homo sapiens, UniProt P22455)","enzyme activity, inhibitor",,,8480 nM
COc1cc(OC)cc(-c2nc3ccc(C(=O)NCCCN4CCN(c5cccc(C)c5C)CC4)cc3n2C2CCC2)c1,"ACVR1 (Homo sapiens, UniProt Q04771)","target engagement in cells, BRET",,,4720 nM
NC(=O)c1ccc(NC(=O)c2[nH]cnc2C(=O)NC2CCNCC2)cc1,"PDPK1 (Homo sapiens, UniProt O15530)","enzyme activity, inhibitor",,,1000 nM
O=C(OCc1cccc(O)c1O)c1ccc(O)c(CO)c1,"Neutrophil cytosol factor 1, tandem SH3 domain (NCF1, Homo sapiens, UniProt P14598)","binding to p22phox peptide, inhibitor, fluorescence polarization",,added: FITC-p22phox peptide 5 nM,149 nM
CC(=O)N[C@H]1[C@@H](OC(=O)NCCCOCCOCCOCCCNC(=O)O[C@H]2O[C@H](CNC(=O)OCCOCCOCCOCCOCCOCCOCCOCCOCCOCCOC(=O)NC[C@H]3O[C@H](OC(=O)NCCCOCCOCCOCCCNC(=O)O[C@H]4O[C@H](CO)[C@@H](O)[C@H](O)[C@H]4NC(C)=O)[C@H](NC(C)=O)[C@@H](O)[C@@H]3O)[C@@H](O)[C@H](O)[C@H]2NC(C)=O)O[C@H](CO)[C@@H](O)[C@@H]1O,wheat germ agglutinin (Triticum vulgaris),"binding to immobilised GlcNAc, inhibitor, enzyme-linked lectin",,added: HRP-labelled WGA,6.9 nM
O=S(=O)(c1ccccc1)n1cnc2ncncc21,"HSD17B10 (Homo sapiens, UniProt Q99714)",inhibitor,,,~1000 nM
COc1cc(OC)c2c(c1)C(=O)c1cc3oc(=O)cc(C)c3c(O)c1C2=O,mushroom tyrosinase,enzyme activity,,added: L-DOPA,59.95 ± 0.46 µg/mL
Nc1ncc(-c2cnn(C3CCNCC3)c2)cc1-c1nc2ccc(Cl)cc2o1,"JAK2 (Homo sapiens, UniProt O60674)","enzyme activity, inhibitor, TR-FRET",,,770 nM
C=C1CN(S(=O)(=O)c2ccc(C)cc2)CCCN(Cc2ccccc2)CCCN(S(=O)(=O)c2ccc(C)cc2)C1,"Inactive tyrosine-protein kinase 7 (PTK7, Homo sapiens, UniProt Q13308)",,human cells,,2050 nM
O=C(NCCCCc1ccccc1)n1c(=O)oc2cc(-c3ccc(F)cc3)ccc21,"Acid ceramidase (Asah1, Mus musculus, UniProt Q9WV54)","cellular enzyme activity, LC-MS",RAW264.7,3 h,400 nM
C=C(NC(=O)C(=C)NC(=O)c1csc(C2=NC3c4csc(n4)C4NC(=O)c5csc(n5)C(C(C)(O)C(C)O)NC(=O)C5CSC(=N5)C(=CC)NC(=O)C(C(C)O)NC(=O)c5csc(n5)C3(CC2)NC(=O)C(CCSC)NC(=O)C(=C)NC(=O)C(C)NC(=O)C(C(C)CC)NC2C=Cc3c(C(C)O)cc(nc3C2O)C(=O)OC4C)n1)C(N)=O (centres unmarked),"Proteasome subunit beta type-7, in 20S proteasome (PSMB7, Homo sapiens, UniProt Q99436)","trypsin-like activity, inhibitor",purified 20S proteasome,"15 min preincubation, 37 °C, added: Boc-Leu-Arg-Arg-AMC substrate",> 590 nM
CC(C)NCc1ccc(C[C@@H]2NC(=O)[C@@H](Cc3c[nH]c4ccccc34)NC(=O)[C@H](Cc3ccccc3)NC(=O)[C@@H](N)CSSC[C@@H](C(=O)N[C@H](C(N)=O)[C@@H](C)O)NC(=O)[C@H](Cc3ccc(O)c(I)c3)NC2=O)cc1,"SSTR3 (Homo sapiens, UniProt P32745)","ligand displacement, radioligand",,cell membranes,989 nM
O=c1c(-c2nnc(C(F)(F)F)s2)c[nH]n1-c1ccccn1,EGLN2,"enzyme activity, inhibitor, europium VBC binding",,"10 µM FeSO4, 2 mM ascorbate, added: 20 µM 2-oxoglutarate",1200 nM
O=C(c1cccc([N+](=O)[O-])c1)N1CCN(c2ccc(F)cc2)CC1,SEC14,"enzyme activity, inhibitor, radiometric",,,> 100000 nM
CC(C)(C)OC(=O)N1CCN(c2ccc3c(O)c(C(=O)NCc4ccc(C#N)nc4)ncc3n2)CC1,EGLN2,"enzyme activity, inhibitor, AlphaScreen",,,1.9 nM
O=C(CNC1CC1)N1CCc2sccc2C1COc1ccc(Cl)cc1Cl (centres unmarked),"HHAT (Homo sapiens, UniProt Q5VTY9)","enzyme activity, inhibitor",,,5440 nM
CC(C)C[C@H](NC(=O)[C@H](CC(N)=O)NC(=O)[C@H](CC(C)C)NC(=O)[C@@H](NC(=O)[C@@H](NC(=O)[C@@H]1CCCN1C(=O)[C@H](CCCNC(=N)N)NC(=O)[C@H](CCCCN)NC(=O)[C@@H]1CCCN1)[C@@H](C)O)[C@@H](C)O)C(=O)N[C@@H](Cc1ccccc1)C(N)=O,"Mapk14 (Mus musculus, UniProt P47811)","enzyme activity, inhibitor, radiometric",,pH 7.5,168000 nM
N#C/C(=C\c1cccc(-c2cn[nH]c2)c1)C(N)=O,"Ribosomal protein S6 kinase alpha-3, C-terminal kinase domain (RPS6KA3, Homo sapiens, UniProt P51812)","enzyme activity, inhibitor",,"10 mM reduced glutathione, added: 0.1 mM ATP, peptide substrate",1200 nM
NC(=O)[C@@H]1CCCN1C(=O)[C@H](Cc1cn(Cc2ccccc2)cn1)NC(=O)c1nccnc1N,"Thyrotropin-releasing hormone receptor (Mus musculus, UniProt P21761)","ligand displacement, radioligand",,,> 50000 nM
COc1cc(N2CCN(C)CC2)ccc1Nc1ncc2c(n1)N(C)c1ccc(C)cc1C(=O)N2CC(F)(F)F,"MAPK7 (Homo sapiens, UniProt Q13164)","binding, KINOMEscan",,,> 10000 nM
O=C1CCCCC1C(C[N+](=O)[O-])c1ccccc1 (centres unmarked),"PTGS1 (Homo sapiens, UniProt P23219)","enzyme activity, inhibitor",,,57400 nM
O=C(c1ccccc1)N1CCN(c2ccc(F)cc2)CC1,SEC14,"enzyme activity, inhibitor, radiometric",,,> 100000 nM
COc1cccc(/C=C/C(=O)c2ccc(O)cc2C)c1OC,"Seed linoleate 13S-lipoxygenase-1 (Glycine max, UniProt P08170)","enzyme activity, inhibitor, absorbance",,,53800 nM
CC(C)C[C@H](NC(=O)[C@H](CCCNC(=N)N)NC(=O)[C@H](Cc1ccc(O)cc1)NC(=O)[C@H](C)N)C(=O)N[C@@H](CCC(=O)O)C(=O)NCC(=O)N[C@@H](CC(=O)O)C(=O)N[C@@H](CCCNC(=N)N)C(=O)N[C@@H](CO)C(=O)O,"H-2 class I histocompatibility antigen, K-D alpha chain, 29 (H2-K1, Mus musculus, UniProt P01902)","binding, competitor, radioligand competition",,"purified MHC, mutant peptide, added: radiolabeled standard peptide",> 70000 nM
COc1cc(/C=C2/SC(=S)N(CC(=O)Nc3ccccn3)C2=O)cc(OC)c1OC,"CD38 (Homo sapiens, UniProt P28907)","enzyme activity, inhibitor, fluorescence",,,16600 nM
CC[C@H](C)[C@H](NC(=O)[C@H](CCC(=O)O)NC(=O)[C@H](CCCCN)NC(=O)[C@H](CC(C)C)NC(=O)[C@H](CCCCNC(=O)[C@H](CC(C)C)NC(=O)[C@H](CCCNC(=N)N)NC(=O)[C@H](Cc1c[nH]cn1)NC(=O)[C@H](Cc1c[nH]cn1)NC(=O)[C@H](Cc1c[nH]cn1)NC(=O)[C@@H](N)CO)NC(=O)[C@H](CC(C)C)NC(=O)[C@H](CCCNC(=N)N)NC(=O)[C@H](Cc1c[nH]cn1)NC(=O)[C@H](Cc1c[nH]cn1)NC(=O)[C@H](Cc1c[nH]cn1)NC(=O)[C@@H](N)CO)C(=O)N[C@@H](C)C(=O)N[C@@H](CC(N)=O)C(=O)N[C@@H](CO)C(=O)N1CCC[C@H]1C(=O)N[C@H](C(=O)N[C@@H](CCC(N)=O)C(=O)N[C@@H](Cc1ccccc1)C(=O)N[C@@H](Cc1c[nH]c2ccccc12)C(=O)N[C@@H](CCCNC(=N)N)C(=O)N[C@@H](CCSC)C(=O)N[C@H](C(=O)N[C@@H](C)C(=O)N[C@@H](CCCNC(=N)N)C(=O)N[C@@H](CC(N)=O)C(=O)N[C@H](C(=O)N[C@@H](CC(C)C)C(=O)NCC(=O)N[C@@H](CC(N)=O)C(=O)NCC(=O)N[C@@H](C)C(=O)N[C@@H](CCCCN)C(=O)N[C@@H](CCC(N)=O)C(=O)N[C@@H](CO)C(=O)N[C@@H](CC(C)C)C(=O)N[C@@H](CC(N)=O)C(=O)N[C@H](C(=O)N[C@@H](CCC(=O)O)C(=O)N[C@@H](Cc1c[nH]cn1)C(=O)N[C@@H](C)C(=O)O)[C@@H](C)CC)[C@@H](C)O)C(C)C)[C@@H](C)O,"Programmed cell death protein 1, with PD-L1 (PDCD1, Homo sapiens, UniProt Q15116)","PD-L1 binding to Jurkat T cells, inhibitor, flow cytometry",stimulated Jurkat,"1 h, 4 °C, added: human PD-L1 2 µg/mL",2580 nM
CN(C(=O)c1ccn2ncc(-c3ccc(C(N)=O)cc3)c2c1)c1ccc(C#N)cn1,"CCKAR (Homo sapiens, UniProt P32238)",cell-free assay,,,> 30000 nM
CNC(=O)c1cc(C)ccc1NC(=O)c1ccc(-c2cc(O)ccc2C)c(C)c1,"EPHB2 (Homo sapiens, UniProt P29323)","target engagement in cells, BRET",,,648 nM
CC(=O)NCCN(CC(=O)NCCN(CC(=O)NCCN(CC(=O)NCCC(N)=O)C(=O)[C@@H](N)CCCNC(=N)N)C(=O)[C@@H](N)CCCNC(=N)N)C(=O)[C@@H](N)Cc1ccccc1,HIV-1 TAR RNA,"Tat/TAR complex displacement, FRET",,"room temperature, added: 10 nM Tat/TAR complex",3800 ± 800 nM

# Some of these lines once more:
SMILES,target,test,test system,conditions,IC50
CNC(=O)C1CCN(c2cc(C)c(F)cc2NC(=O)c2ccc(-c3c(C)ccc4[nH]ncc34)c(C)c2)CC1,"EPHA4 (Homo sapiens, UniProt P54764)","target engagement in cells, BRET",,,40 nM
CCCCn1nc(-c2cc(Br)ccc2F)nc2c(=O)n(C)c(=O)nc1-2,"TPR (Trypanosoma brucei brucei, UniProt P39051)","inhibitor, DTNB-coupled colourimetric",,added: substrate at Km,> 100000 nM
CCN(c1nc(NCC(=O)O)nc(N2CCN(c3ccccc3C#N)CC2)n1)C1CCCCC1,"Slit homolog 2 protein, with SLIT2 (SLIT2, Homo sapiens, UniProt O94813)","inhibitor, TR-FRET",,,225000 nM
N#Cc1c(Nc2c(Cl)ccc3ncccc23)s[nH]c1=O,"SARM1 (Homo sapiens, UniProt Q6SZW1)","enzyme activity, inhibitor",,,1200 nM
